Published values from different studies.
Protocols differ between the studies behind these lines. Several values in a cell are separate wells, animals, samples, runs or records. Numbers after ± are the reported error.

For `O=C(/C=C/CCc1ccc(O)cc1)/C=C/c1ccc(O)cc1`, the body weight was 20 ± 1 g (nude mouse MCF7 xenograft; 40 mg/kg, day 9).
For `COc1cccc2c1C(=O)c1c(O)c3c(c(O)c1C2=O)C[C@@](O)(C(=O)CO)C[C@@H]3O[C@H]1C[C@H](N)[C@H](O)[C@H](C)O1`, “body weight loss” read ~19% (mouse 4T1 tumour; 10 mg/kg, 14 days).
`O=C(O)CSc1nnc(Br)n1-c1ccc(C2CC2)c2ccccc12` gave a body weight of 25.4 g and 29.7 g and 24.8 g and 29.2 g and 32.5 g and 30.5 g (KM mouse, chronic hyperuricaemia model; dose not given, day 8).
Under body weight, `CCCCCN1C[C@H](O)[C@@H](O)[C@H](O)[C@@H]1CO` is recorded as “no effect” (mouse Hexb-/-; dose not given, at euthanasia, 105 days of age).
With `CCCCc1nc2cc(/C=C/C(=O)NO)ccc2n1CCN(CC)CC` the body weight was 103% (mouse, HEL 92.1.7 subcutaneous xenograft; 75 mg/kg every other day, day 17; relative to: baseline).
For `COc1ccc(S(=O)(=O)ON=C2C=C(C)C(=O)C(C)=C2)cc1`, “body weight change” read ≤ 10% (NU/NU mouse, MDA-MB-468 xenograft; intraperitoneal, 0.5 mg twice weekly).
`C=CCn1c(=O)c2cnc(Nc3ccc(N4CCN(C)CC4)cc3)nc2n1-c1ccc2c(n1)[C@@](O)(CC)CC2`: “body weight loss” < 10% (mouse, A-427 xenograft; 20 to 80 mg/kg once daily, 28 days; relative to: vehicle).
`O=C1CCC(=O)N1Cc1cc2nccc(-c3cc(Cl)cc4c3N([C@@H]3CNC5(CCC5)C3)CCC4)c2s1`: “body weight loss” < 5% (mouse, MV4-11 xenograft; 30 mg/kg twice daily, 24 days).
`NC[C@@H]1O[C@H](O[C@H]2[C@@H](O)[C@H](O[C@@H]3[C@@H](O)[C@H](N)C[C@H](N)[C@H]3O[C@H]3O[C@H](CO)[C@@H](O)[C@H](O)[C@H]3N)O[C@@H]2CO)[C@H](N)[C@@H](O)[C@@H]1O` has a body weight of 21.4 g and 20.7 g and 21.2 g and 21.8 g (NSG mouse; dose not given, day 1 of treatment).
For `Cc1nc(-c2ccc(OCC(C)C)c(C#N)c2)sc1C(=O)O`, the body weight was 37.2 g and 33.8 g and 30 g and 29 g and 34.6 g (KM mouse, chronic hyperuricaemia model; dose not given, day 12).
Under “body weight decrease”, `Nc1nnc(-c2ccccc2O)cc1N1CCN(Cc2ccc(OCCOCCNc3cccc4c3C(=O)N(C3CCC(=O)NC3=O)C4=O)c(F)c2)CC1` (stereo not shown) is recorded as 5 to 10% (nude mouse xenograft; intraperitoneal, 12.5 mg/kg daily; relative to: vehicle).
`CC(=O)O[C@@]12CO[C@@H]1C[C@H](O)[C@@]1(C)C(=O)[C@H](O)C3=C(C)[C@@H](OC(=O)[C@H](O)[C@@H](NC(=O)OC(C)(C)C)c4ccccc4)C[C@@](O)([C@@H](OC(=O)c4ccccc4)[C@H]21)C3(C)C`: “body weight loss” -14.3% (healthy BALB/c mouse; intravenous, 10 mg/kg every 3 days, three doses).
Under “body weight gain”, `CC(C)(C)c1ccc(C(=O)Nc2ccc3[nH]c(C(=O)NO)cc3c2)cc1` is recorded as “not toxic” (mouse, 2LMP human breast cancer orthotopic xenograft; intraperitoneal, 50 mg/kg five times per week, 3 weeks; relative to: vehicle).
